Measurements pooled from the literature.
Each numbered part is a random draw from the data of one study; scales do not carry over between parts.
Sequence of UniProt P45983 (whole entry, looked up): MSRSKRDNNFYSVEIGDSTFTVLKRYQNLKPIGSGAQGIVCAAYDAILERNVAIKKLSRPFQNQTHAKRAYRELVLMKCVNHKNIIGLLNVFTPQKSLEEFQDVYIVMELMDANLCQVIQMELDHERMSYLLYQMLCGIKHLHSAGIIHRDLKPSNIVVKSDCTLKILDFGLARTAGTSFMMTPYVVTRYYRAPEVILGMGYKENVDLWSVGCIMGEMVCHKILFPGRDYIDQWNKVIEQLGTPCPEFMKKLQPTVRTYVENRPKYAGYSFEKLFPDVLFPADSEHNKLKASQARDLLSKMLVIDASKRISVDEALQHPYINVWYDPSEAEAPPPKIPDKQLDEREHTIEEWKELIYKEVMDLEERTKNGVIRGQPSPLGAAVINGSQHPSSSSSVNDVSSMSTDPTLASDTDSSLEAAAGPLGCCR
Sequence of UniProt P21127 (whole entry, looked up): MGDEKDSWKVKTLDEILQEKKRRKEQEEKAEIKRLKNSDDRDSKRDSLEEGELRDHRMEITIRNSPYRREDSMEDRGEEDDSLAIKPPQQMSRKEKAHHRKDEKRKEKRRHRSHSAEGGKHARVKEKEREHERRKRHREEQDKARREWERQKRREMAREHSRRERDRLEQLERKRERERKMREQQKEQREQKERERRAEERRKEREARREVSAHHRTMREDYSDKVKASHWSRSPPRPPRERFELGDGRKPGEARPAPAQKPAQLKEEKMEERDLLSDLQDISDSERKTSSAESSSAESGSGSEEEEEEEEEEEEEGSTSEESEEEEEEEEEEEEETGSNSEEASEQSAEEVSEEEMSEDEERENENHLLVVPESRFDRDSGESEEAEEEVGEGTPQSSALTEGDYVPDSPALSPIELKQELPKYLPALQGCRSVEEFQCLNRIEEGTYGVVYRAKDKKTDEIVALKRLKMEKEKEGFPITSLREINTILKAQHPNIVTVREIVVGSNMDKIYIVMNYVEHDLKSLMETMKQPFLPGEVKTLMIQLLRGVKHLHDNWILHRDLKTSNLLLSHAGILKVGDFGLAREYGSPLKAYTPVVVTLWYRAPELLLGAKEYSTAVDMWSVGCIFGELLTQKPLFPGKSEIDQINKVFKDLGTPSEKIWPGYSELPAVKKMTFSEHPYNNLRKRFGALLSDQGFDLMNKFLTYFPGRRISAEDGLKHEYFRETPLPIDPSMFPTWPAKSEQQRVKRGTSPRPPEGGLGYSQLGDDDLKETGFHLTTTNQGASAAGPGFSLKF
Sequence of UniProt Q15303 (whole entry, looked up): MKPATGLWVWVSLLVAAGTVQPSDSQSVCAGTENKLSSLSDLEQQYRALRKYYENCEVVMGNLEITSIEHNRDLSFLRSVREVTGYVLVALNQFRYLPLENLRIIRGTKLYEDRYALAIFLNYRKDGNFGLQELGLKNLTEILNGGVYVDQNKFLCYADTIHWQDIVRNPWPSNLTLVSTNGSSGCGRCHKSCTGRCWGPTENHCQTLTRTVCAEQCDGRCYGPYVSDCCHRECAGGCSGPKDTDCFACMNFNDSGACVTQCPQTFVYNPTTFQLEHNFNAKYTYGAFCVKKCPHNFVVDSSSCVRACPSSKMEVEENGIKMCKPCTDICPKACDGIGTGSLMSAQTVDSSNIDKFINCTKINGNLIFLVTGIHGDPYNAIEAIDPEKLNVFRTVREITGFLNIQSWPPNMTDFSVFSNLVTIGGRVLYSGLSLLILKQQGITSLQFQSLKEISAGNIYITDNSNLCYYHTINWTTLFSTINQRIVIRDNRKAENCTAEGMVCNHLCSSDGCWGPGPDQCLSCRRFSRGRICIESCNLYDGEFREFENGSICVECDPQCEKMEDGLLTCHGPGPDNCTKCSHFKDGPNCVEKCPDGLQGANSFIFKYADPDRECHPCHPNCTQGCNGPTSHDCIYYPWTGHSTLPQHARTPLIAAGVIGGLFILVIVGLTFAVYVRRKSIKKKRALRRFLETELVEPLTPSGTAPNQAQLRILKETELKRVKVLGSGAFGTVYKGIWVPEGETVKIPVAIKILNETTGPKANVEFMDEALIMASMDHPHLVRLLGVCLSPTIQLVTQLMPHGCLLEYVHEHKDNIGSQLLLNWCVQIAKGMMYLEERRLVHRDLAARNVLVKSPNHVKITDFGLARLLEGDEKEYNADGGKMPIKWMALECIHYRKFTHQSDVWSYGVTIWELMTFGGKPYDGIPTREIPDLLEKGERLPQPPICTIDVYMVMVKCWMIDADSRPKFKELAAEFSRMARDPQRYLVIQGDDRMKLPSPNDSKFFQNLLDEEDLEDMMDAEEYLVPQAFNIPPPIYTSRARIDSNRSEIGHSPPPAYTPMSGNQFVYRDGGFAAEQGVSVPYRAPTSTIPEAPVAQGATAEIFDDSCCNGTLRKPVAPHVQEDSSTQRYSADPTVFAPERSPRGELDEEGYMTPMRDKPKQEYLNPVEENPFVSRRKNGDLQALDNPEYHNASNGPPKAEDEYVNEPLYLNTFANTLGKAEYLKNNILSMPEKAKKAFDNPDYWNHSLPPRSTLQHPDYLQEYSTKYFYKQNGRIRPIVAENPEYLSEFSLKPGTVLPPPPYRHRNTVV
Sequence of UniProt P54764 (whole entry, looked up): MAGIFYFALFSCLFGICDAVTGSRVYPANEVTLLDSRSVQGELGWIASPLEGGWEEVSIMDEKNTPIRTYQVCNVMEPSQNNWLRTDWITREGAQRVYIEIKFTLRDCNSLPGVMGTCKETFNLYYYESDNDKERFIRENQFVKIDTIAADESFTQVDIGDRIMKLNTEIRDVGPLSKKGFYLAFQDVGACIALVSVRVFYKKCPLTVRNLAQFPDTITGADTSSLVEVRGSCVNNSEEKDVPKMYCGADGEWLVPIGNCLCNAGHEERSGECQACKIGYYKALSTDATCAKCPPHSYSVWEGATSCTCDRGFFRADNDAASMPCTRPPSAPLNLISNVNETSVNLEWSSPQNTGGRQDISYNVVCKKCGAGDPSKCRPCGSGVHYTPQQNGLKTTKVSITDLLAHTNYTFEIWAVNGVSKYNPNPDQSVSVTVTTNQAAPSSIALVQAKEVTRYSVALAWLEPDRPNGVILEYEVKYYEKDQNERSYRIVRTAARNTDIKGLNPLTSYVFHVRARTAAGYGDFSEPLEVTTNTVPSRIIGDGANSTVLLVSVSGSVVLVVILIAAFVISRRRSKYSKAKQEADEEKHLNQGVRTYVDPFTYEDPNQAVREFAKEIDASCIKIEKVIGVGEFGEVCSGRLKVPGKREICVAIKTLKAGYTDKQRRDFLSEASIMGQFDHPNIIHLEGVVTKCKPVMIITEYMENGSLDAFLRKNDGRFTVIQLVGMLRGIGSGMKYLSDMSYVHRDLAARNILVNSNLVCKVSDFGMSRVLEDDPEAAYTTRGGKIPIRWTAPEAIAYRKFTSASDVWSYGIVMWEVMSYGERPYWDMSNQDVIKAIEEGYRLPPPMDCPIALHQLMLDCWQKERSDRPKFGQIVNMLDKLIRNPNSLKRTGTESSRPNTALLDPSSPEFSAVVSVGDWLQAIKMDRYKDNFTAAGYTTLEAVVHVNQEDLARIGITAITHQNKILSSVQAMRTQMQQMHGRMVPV
Sequence of UniProt P37023 (whole entry, looked up): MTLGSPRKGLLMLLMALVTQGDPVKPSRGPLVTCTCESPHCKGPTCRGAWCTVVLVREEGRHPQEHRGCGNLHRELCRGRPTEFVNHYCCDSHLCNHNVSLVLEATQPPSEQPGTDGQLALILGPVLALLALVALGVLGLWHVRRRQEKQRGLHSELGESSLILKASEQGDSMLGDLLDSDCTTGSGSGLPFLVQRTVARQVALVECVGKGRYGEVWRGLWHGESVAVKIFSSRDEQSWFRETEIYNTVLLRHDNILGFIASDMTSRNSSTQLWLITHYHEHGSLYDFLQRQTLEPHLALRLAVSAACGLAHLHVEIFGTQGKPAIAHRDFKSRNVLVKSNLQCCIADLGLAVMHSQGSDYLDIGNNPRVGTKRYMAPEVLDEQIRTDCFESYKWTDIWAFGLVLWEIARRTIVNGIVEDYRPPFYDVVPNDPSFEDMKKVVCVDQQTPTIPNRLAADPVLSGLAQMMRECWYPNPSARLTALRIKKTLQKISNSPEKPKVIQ
Sequence of UniProt Q9BWU1 (whole entry, looked up): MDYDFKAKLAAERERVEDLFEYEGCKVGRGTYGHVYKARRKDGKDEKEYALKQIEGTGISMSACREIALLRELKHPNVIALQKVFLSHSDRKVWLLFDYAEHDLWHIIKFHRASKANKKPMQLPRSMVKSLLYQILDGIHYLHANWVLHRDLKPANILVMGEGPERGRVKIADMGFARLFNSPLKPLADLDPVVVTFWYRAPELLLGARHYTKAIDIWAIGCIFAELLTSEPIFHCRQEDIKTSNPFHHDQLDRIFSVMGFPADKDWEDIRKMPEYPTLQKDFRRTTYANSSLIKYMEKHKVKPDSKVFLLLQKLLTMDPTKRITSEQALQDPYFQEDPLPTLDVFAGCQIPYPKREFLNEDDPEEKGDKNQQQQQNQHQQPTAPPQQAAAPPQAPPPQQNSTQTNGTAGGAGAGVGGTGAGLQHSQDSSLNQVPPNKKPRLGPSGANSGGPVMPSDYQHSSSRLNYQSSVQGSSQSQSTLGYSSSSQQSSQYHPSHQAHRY

Block 1 — host: mouse; matrix: microsomes or S9; tested at: 2 µM; time: 0.5 h
Structure (SMILES) | remaining compound [%]
N#Cc1ccc2[nH]cc(S(=O)(=O)c3cc(Cl)cc(Cl)c3)c(=O)c2c1 | 20
Cc1c(-c2ccccc2)sc2ncnc(NS(=O)(=O)c3ccc(Cl)s3)c12 | 8.82
Cc1n[nH]cc1CNC(=O)c1ccc(Cn2c(=O)c3cccn3c3cccnc32)o1 | 2.16
O=C(Cc1csc(COc2ccccc2)n1)NCCc1c[nH]c2ccccc12 | 0.762
CC1CC(=O)N(Cc2ccc(Br)cc2)c2ccccc2N1 (stereo not shown) | 1.46
CCOc1ccc(CCNC(=O)Cn2cccc2C(=O)c2ccccc2C)cc1OCC | 0.783
COC(=O)c1coc(C(=O)N(C)c2ccc(C)c(N(C)C)c2)c1 | 9.36
N#Cc1ccc(Oc2ccc(NC(=O)NCc3cc[nH]n3)cn2)cc1 | 46.7
C[C@@H]1CN(c2ccncc2F)C[C@@]1(O)C1CCC1 | 23.2
CCC1(N2CCOCC2)CCN(C(=O)c2c[nH]c(=O)cc2OC)CC1 | 63.7
Cc1ccc(/C=C/c2onc(C)c2S(=O)(=O)N2CCC(C(=O)Nc3cccnc3)CC2)cc1 | 94.2
CCC1=NN2C(=NC(C(=O)O)=CC2c2ccc(O)cc2)N1 (stereo not shown) | 91.9
CC1=CC(C)(C)Oc2cc(C)c(C(=O)N=C(N)N)cc21 | 19.3

Block 2 — observed: enzyme activity; action: inhibitor; tested at: 0.5 µM; relative to: control
Target: Tyrosine-protein kinase Fgr (FGR, Homo sapiens, UniProt P09769)
Sequence of UniProt P09769 (whole entry, looked up): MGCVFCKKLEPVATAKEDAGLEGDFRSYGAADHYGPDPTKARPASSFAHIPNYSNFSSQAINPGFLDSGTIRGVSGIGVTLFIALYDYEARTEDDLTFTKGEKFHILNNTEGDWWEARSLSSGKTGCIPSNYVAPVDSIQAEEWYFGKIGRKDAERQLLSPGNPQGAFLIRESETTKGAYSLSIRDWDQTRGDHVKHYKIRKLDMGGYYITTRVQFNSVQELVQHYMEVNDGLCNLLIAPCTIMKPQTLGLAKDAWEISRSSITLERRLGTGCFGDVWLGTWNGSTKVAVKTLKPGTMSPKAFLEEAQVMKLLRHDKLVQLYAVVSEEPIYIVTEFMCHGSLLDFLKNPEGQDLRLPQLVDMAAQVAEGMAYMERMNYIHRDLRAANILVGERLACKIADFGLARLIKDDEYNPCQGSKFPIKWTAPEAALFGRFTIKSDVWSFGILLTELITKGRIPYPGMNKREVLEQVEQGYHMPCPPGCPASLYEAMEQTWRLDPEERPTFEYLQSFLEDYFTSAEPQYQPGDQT
Structure (SMILES) | remaining activity [%]
O=C1c2ccccc2-c2n[nH]c3cccc1c23 | 88.8
Cc1cn(-c2cc(NC(=O)c3ccc(C)c(Nc4nccc(-c5cccnc5)n4)c3)cc(C(F)(F)F)c2)cn1 | 63.7
C[C@@H]1CCN(C(=O)CC#N)C[C@@H]1N(C)c1ncnc2[nH]ccc12 | 91.1
COc1cc2ncnc(Nc3cccc(Cl)c3)c2cc1OC | 75.3
CN(C)C[C@H]1CCn2c(c(C3=C(c4cn(C)c5ccccc45)C(=O)NC3=O)c3ccccc32)C1 | 97.2
Ic1cccc(CSc2nnc(-c3ccncc3)o2)c1 | 90.9
CCN(CC)CCNC(=O)c1c(C)[nH]c(/C=C2\C(=O)Nc3ccc(Cl)cc32)c1C | 11.5
CCN(CC)CCNC(=O)c1c(C)[nH]c(/C=C2\C(=O)Nc3ccc(F)cc32)c1C | 16.4
CCN(CC)C(=O)c1ccc(Nc2nc(OCC3CCCCC3)c3[nH]cnc3n2)cc1 | 54.2
O=C(NC(NC(=S)Nc1ccc(F)c([N+](=O)[O-])c1)C(Cl)(Cl)Cl)C(c1ccccc1)c1ccccc1 (stereo not shown) | 84.5
COc1cc2c(cc1OC)-c1[nH]nc(Nc3cccc(F)c3)c1C2 | 47.2
CN([C@@H](Cc1ccc(OS(=O)(=O)c2cccc3cnccc23)cc1)C(=O)N1CCN(c2ccccc2)CC1)S(=O)(=O)c1cccc2cnccc12 | 99.5
N#C/C(=C\c1ccc(O)c(O)c1)C(=O)NCc1ccccc1 | 93.7
O=c1cc(-c2cccc3c2Sc2ccccc2S3)oc(N2CCOCC2)c1 | 84.9
c1ccc(-c2cnc(Nc3ccc(OCCN4CCCC4)cc3)s2)cc1 | 65.7
Cc1nc2cc3nc(-c4cccs4)cnc3cc2n1C | 89.3
Cc1cc2ncc(-c3ccccc3)nc2cc1C | 99.1
O=C(Nc1cccc(Nc2nccc(Nc3cccc(C(F)(F)F)c3)n2)c1)C1CC1 | 80.9
Cn1nc2c3c(cccc31)C(=O)c1ccccc1-2 | 93.4
O=C1C(Cl)=C(N2C(=O)CCC2=O)C(=O)c2ccccc21 | 102
c1ccc(-c2[nH]ncc2-c2ccnc3ccccc23)nc1 | 91.9
N#Cc1c(NC(=O)c2cccc3ccccc23)sc2c1CCCC2 | 98.1
Nc1cccc(-c2cc3c(Oc4cccc(O)c4)ncnc3[nH]2)c1 | 5.28
CCOc1nc(NC(=O)Cc2cc(OC)ccc2OC)cc(N)c1C#N | 93.6
COc1cc2ncnc(Nc3ccc(O)c(Br)c3)c2cc1OC | 57.8

Block 3 — method: phase 2a trial; host: idiopathic pulmonary fibrosis patients
SMILES: CC(C)n1cnc(-c2ccc(F)cc2)c1-c1ncc(C(=O)Nc2ccc(N3CCN(C)CC3)cc2)[nH]1
assay | setting | adverse event incidence [%]
refers to: infection | 30 mg once daily, grade 3 | 0
refers to: arthritis | 60 mg once daily, grade 4 | 0
refers to: immunoglobulins increased | 30 mg once daily, grade 5 | 0
refers to: hepatic enzyme abnormal | 30 mg once daily, grade 2 | 0
refers to: carotid intima-media thickening | dose not given, grade 5, all arms pooled | 0
refers to: ECG ST segment abnormal | 60 mg once daily, grade 5 | 0
refers to: hydroxybutyrate dehydrogenase increased | 60 mg once daily, grade 2 | 0
refers to: allergic conjunctivitis | 60 mg once daily, grade 5 | 0
refers to: immunoglobulins increased | dose not given, grade 5, all arms pooled | 0

Block 4 — action: inhibitor
Compound: Cc1nc(Nc2ncc(C(=O)Nc3c(C)cccc3Cl)s2)cc(N2CCN(CCO)CC2)n1
target | setting | inhibition
MAPK4 (Homo sapiens, UniProt P31152) | 10 µM | < 50%
ACVRL1 (Homo sapiens, UniProt P37023) | 10 µM | 90%
PRKD1 (Homo sapiens, UniProt Q15139) | 10 µM | < 50%
ERBB4 (Homo sapiens, UniProt Q15303) | 10 µM | 100%
CDK19 (Homo sapiens, UniProt Q9BWU1) | 10 µM | < 50%
MAPK8 (Homo sapiens, UniProt P45983) | 1 µM | < 50%
Tyrosine-protein kinase JAK1, JH1 kinase domain (JAK1, Homo sapiens, UniProt P23458) | 10 µM | < 50%
CDK11B (Homo sapiens, UniProt P21127) | 10 µM | < 50%
PLK1 (Homo sapiens, UniProt P53350) | 10 µM | < 50%
EPHA4 (Homo sapiens, UniProt P54764) | 10 µM | 100%
ULK2 (Homo sapiens, UniProt Q8IYT8) | 1 µM | < 50%
RET (Homo sapiens, UniProt P07949) | 10 µM | 98%
PDPK1 (Homo sapiens, UniProt O15530) | 10 µM | < 50%
CSNK1D (Homo sapiens, UniProt P48730) | 1 µM | < 50%
